Measured values gathered from unrelated publications.
Protocols differ between the studies behind these lines. Numbers after ± are the reported error.
Chain of UniProt P11362 (whole entry, looked up): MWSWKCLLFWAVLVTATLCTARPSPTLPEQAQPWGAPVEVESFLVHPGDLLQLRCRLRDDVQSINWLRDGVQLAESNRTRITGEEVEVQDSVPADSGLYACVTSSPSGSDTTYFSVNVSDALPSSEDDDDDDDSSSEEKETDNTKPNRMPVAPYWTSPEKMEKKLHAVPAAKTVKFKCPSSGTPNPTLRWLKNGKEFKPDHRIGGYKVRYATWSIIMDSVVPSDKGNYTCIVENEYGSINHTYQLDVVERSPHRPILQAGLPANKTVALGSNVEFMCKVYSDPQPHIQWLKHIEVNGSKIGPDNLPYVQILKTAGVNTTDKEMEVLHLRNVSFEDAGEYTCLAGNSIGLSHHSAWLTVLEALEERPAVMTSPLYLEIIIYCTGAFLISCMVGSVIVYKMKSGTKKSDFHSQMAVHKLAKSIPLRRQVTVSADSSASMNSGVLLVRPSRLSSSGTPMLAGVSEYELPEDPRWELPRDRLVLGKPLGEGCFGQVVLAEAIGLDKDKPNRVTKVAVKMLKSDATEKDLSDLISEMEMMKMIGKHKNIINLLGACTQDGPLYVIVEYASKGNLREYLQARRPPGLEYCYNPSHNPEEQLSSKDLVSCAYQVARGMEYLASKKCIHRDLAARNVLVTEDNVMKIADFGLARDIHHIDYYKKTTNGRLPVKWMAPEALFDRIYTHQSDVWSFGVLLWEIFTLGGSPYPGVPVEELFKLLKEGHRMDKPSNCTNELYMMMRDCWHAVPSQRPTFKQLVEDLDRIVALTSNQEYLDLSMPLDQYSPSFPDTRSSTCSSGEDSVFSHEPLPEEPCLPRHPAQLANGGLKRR
Chain of UniProt P28845 (whole entry, looked up): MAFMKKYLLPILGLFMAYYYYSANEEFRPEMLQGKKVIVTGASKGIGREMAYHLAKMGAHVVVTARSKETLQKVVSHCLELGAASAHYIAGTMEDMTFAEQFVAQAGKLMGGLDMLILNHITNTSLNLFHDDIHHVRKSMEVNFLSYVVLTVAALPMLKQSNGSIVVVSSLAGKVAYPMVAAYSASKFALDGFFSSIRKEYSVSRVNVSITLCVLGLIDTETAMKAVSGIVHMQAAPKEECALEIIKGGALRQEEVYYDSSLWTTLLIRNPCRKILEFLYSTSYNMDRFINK
Chain of UniProt P31424 (whole entry, looked up): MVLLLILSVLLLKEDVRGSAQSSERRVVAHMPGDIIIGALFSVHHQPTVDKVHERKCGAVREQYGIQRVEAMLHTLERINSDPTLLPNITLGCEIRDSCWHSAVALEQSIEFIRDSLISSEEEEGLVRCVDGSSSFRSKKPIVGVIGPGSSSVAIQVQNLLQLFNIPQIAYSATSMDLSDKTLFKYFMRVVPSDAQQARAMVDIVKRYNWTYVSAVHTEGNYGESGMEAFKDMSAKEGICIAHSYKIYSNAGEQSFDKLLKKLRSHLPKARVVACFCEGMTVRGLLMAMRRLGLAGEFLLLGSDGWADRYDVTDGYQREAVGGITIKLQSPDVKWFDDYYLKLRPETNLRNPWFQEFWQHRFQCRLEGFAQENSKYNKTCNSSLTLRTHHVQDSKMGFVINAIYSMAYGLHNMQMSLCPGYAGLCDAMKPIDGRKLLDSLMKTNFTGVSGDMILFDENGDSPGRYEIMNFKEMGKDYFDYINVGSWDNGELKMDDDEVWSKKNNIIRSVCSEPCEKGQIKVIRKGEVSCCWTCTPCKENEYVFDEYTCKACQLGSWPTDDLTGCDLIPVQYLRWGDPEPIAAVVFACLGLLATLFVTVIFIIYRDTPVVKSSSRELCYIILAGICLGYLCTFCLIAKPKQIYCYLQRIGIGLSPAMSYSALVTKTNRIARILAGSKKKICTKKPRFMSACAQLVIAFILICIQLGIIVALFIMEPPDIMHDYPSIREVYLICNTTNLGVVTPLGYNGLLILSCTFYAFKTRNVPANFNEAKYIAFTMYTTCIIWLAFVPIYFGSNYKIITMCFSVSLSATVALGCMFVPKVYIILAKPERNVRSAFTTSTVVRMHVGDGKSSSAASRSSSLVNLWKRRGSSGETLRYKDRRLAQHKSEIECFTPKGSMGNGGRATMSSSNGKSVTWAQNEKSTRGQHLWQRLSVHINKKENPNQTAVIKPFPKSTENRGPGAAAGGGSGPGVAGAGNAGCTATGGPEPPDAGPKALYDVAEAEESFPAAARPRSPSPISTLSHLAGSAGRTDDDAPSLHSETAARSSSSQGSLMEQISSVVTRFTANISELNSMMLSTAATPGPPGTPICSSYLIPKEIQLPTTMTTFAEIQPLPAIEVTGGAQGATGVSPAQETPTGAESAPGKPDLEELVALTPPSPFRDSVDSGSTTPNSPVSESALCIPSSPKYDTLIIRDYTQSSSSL
Chain of UniProt P26433 (whole entry, looked up): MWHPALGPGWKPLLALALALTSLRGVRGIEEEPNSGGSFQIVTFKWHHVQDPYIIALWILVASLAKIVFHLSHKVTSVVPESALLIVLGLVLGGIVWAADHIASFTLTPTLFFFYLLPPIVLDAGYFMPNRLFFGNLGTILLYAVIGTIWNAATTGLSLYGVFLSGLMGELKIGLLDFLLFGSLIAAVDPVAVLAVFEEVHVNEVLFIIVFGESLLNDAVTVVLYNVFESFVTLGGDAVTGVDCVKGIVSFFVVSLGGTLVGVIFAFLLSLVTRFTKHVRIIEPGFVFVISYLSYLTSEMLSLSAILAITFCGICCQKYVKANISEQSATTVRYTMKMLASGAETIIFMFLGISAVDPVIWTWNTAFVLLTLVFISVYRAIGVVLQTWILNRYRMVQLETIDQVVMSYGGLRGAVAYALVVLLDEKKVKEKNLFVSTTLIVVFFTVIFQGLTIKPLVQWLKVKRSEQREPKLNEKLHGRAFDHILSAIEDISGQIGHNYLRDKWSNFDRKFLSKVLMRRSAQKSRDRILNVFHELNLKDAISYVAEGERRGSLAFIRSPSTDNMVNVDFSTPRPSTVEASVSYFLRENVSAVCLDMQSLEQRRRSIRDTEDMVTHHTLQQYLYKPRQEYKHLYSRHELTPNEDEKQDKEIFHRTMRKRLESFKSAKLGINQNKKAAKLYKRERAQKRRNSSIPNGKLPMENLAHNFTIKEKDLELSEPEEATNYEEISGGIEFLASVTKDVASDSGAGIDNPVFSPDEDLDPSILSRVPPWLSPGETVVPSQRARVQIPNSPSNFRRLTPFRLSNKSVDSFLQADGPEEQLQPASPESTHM
Chain of UniProt O00522 (whole entry, looked up): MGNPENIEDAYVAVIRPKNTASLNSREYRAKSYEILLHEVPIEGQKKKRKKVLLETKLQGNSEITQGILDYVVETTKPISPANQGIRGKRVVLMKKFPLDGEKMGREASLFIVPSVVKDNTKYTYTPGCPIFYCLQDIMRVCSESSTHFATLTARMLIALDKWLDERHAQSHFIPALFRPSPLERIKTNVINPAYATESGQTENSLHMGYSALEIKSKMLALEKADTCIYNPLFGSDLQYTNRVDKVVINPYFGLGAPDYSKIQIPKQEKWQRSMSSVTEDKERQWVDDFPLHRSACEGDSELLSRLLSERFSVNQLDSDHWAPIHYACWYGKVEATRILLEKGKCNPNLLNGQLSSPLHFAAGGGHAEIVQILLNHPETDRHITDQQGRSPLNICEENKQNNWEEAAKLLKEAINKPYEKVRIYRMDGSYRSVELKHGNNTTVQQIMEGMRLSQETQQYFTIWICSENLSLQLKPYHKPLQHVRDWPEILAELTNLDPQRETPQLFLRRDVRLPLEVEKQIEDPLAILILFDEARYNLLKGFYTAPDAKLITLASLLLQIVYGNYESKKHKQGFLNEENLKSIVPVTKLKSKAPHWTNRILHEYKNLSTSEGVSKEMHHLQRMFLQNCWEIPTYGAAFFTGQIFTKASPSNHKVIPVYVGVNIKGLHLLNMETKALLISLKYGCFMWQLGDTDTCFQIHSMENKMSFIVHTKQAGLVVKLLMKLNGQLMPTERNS
Chain of UniProt P48775 (whole entry, looked up): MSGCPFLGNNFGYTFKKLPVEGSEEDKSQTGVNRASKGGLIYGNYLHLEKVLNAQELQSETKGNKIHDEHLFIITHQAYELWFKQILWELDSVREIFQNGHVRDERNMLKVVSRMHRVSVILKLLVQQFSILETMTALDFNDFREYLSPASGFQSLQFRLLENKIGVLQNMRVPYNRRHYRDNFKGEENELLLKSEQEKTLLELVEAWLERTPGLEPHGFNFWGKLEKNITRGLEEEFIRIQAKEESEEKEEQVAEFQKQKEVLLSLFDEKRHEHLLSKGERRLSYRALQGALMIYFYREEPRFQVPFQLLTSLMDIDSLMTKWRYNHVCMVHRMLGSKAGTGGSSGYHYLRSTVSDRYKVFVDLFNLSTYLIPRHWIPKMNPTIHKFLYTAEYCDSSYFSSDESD
Chain of UniProt Q9GZZ1 (whole entry, looked up): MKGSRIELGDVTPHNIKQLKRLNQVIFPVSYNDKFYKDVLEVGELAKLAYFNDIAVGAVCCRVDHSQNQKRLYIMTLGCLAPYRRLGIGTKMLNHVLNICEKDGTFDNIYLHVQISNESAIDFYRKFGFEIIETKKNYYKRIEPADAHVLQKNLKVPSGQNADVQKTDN
Chain of UniProt O15393 (whole entry, looked up): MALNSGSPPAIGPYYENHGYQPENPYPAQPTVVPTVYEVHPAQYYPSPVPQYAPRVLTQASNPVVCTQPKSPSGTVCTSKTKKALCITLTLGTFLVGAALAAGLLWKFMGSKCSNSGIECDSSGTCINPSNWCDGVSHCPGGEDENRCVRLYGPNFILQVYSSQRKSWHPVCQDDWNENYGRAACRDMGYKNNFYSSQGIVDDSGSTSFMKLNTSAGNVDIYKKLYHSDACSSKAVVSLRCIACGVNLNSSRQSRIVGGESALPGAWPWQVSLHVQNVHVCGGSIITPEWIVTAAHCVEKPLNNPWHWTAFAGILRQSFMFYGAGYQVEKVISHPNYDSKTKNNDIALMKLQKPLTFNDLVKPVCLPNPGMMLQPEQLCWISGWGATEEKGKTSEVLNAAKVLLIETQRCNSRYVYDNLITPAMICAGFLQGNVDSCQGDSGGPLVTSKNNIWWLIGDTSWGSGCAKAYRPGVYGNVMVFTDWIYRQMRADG

SMILES	target	assay	system	conditions	IC50
CCCCOc1ccc(S(=O)(=O)N2CC2C(=O)OC)cc1 (stereo not shown)	Protein disulfide-isomerase (P4HB, Homo sapiens, UniProt P07237)	enzyme activity, inhibitor, absorbance		pH 7.6	0.96 µM
CC(=O)CSCCNC(=O)CCNC(=O)C(O)C(C)(C)COP(=O)(O)OP(=O)(O)OCC1OC(n2cnc3c(N)ncnc32)C(O)C1OP(=O)(O)O (stereo not shown)	N-alpha-acetyltransferase 50 (Homo sapiens, UniProt Q9GZZ1)	enzyme activity, inhibitor			130 µM
CN(C)c1ccc2c(-c3cc(C(=O)N4CCN(CCCOc5ccc6nccc(C(=O)NCC(=O)N7CC(F)(F)C[C@H]7C#N)c6c5)CC4)ccc3C(=O)[O-])c3ccc(=[N+](C)C)cc-3oc2c1	Prolyl endopeptidase FAP (Fap, Mus musculus, UniProt P97321)	enzyme activity, inhibitor, fluorescence			0.00107 µM
COc1cc2nccc(Oc3ccc(NC(=S)N[C@@H](C)CO)c(Cl)c3)c2cc1C(N)=O	Fibroblast growth factor receptor 1 (FGFR1, Homo sapiens, UniProt P11362)				0.635 µM
OC(c1ccccc1)(c1ccccc1)c1cccs1	Gap junction alpha-8 protein (Gja8, Mus musculus, UniProt P28236)	gap junction current, inhibitor, dual whole-cell voltage clamp	transfected mouse N2a cell pairs		4 µM
COc1ccccc1-c1ccncc1C(=O)Nc1nnc(OCc2ccc(Cl)cc2)s1	DNA polymerase theta, helicase domain (POLQ, Homo sapiens, UniProt O75417)	helicase ATPase activity, inhibitor, ADP-Glo		60 min, with: ssDNA, 100 µM ATP	0.006 µM
Cc1cc(O)c(C=O)c2c1C(=O)Oc1c(CO)c(O)c3c(c1O2)C(O)OC3=O (stereo not shown)	cGMP-specific 3',5'-cyclic phosphodiesterase (PDE5A, Homo sapiens, UniProt O76074)	enzyme activity, inhibitor, luciferase			8.16 µM
CN1Cc2c(Cl)cc(Cl)cc2C(c2cccc(S(=O)(=O)NCCNC(=O)C(O)C(O)C(=O)NCCNS(=O)(=O)c3cccc(C4CN(C)Cc5c(Cl)cc(Cl)cc54)c3)c2)C1 (stereo not shown)	Sodium/hydrogen exchanger 3 (Rattus norvegicus, UniProt P26433)	intracellular pH recovery, inhibitor, pH-sensitive dye	opossum kidney cells, transfected		0.501 µM
N#Cc1cnc(Nc2nc3ccccc3o2)nc1-c1ccccc1Cl	Metabotropic glutamate receptor 5 (Grm5, Rattus norvegicus, UniProt P31424)	calcium signal, antagonist			0.516 µM
NCc1ccc(NC(=O)c2cc3ccccc3cc2O)cc1	Transmembrane protease serine 2 (TMPRSS2, Homo sapiens, UniProt O15393)	enzyme activity, inhibitor, fluorescence		with preincubation	2.1 µM
O=C(O)c1cc(-c2ccccc2)nc(O)n1	Tryptophan 2,3-dioxygenase (TDO2, Homo sapiens, UniProt P48775)	inhibitor		with: L-tryptophan 400 µM	~300 µM
C=Cc1ccc(/N=c2\oc3ccccc3cc2-c2ccccc2)cc1	Prostaglandin G/H synthase 2 (PTGS2, Homo sapiens, UniProt P35354)	enzyme activity, inhibitor			0.0127 µM
O=C(O)[C@@H]1Cc2c([nH]c3ccccc23)[C@@H](c2ccc(F)cc2F)N1	MEP cytidylyltransferase IspD (Plasmodium falciparum, UniProt Q8I273)	enzyme activity, inhibitor, fluorimetric pyrophosphate		60 nM enzyme	0.23 ± 0.01 µM
O=C(O)c1ccccc1/N=C/c1c(O)ccc2ccccc12	Krev interaction trapped protein 1, FERM domain (KRIT1, Homo sapiens, UniProt O00522)	HEG1-KRIT1 FERM interaction, inhibitor, flow cytometry bead			3.5 µM
C[C@H](NC(=O)[C@H](CC(=O)NCC(C)(C)C)NC(=O)C(=O)c1c[nH]c2ccccc12)C(=O)NCc1ccc(F)cc1F	Proteasome subunit beta type-10 / Proteasome subunit beta type-3 (Homo sapiens, UniProt P40306+P49720)	inhibitor			> 100 µM
O=C(CS(=O)(=O)Cc1cccs1)C12CC3CC(CC(C3)C1)C2	11-beta-hydroxysteroid dehydrogenase 1 (HSD11B1, Homo sapiens, UniProt P28845)	enzyme activity in cells, inhibitor			0.202 µM
